Published values collected from several papers.
Protocols differ between the studies behind these lines. “And” joins repeats or separate records; there may be more than shown. Numbers after ± are the reported error.
SLC6A3: Sodium-dependent dopamine transporter (SLC6A3, Homo sapiens, UniProt Q01959)
GPR39: G-protein coupled receptor 39 (GPR39, Homo sapiens, UniProt O43194)

SMILES | target | test | system | conditions | EC50
CC(C(=O)O)c1nn(C)c2nc(N)[nH]c(=O)c2c1=O (stereo not shown) | Dihydropteroate synthase (folP, Bacteria, UniProt P0AC13) | thermal stabilisation, lysate HiBiT CETSA |  | 63 °C, tested 0.01 to 200 µM | 2540 nM
CCOC(=O)C12CC1C(n1cnc3c(NC)nc(C#Cc4ccc(F)s4)nc31)C(O)C2O (stereo not shown) | SLC6A3 | ligand displacement, radioligand |  |  | 120 nM
Cn1c(=O)n(C2CCC(=O)NC2=O)c2ccc(C3CCN(CC(=O)Nc4cccc(CS(=O)(=O)N5CC[C@H](Nc6cccc(-c7sc(C(=O)O)c(OCC(=O)O)c7Cl)c6)CC5(C)C)c4)CC3)cc21 (stereo partly shown) | Tyrosine-protein phosphatase non-receptor type 1 (PTPN1, Homo sapiens, UniProt P18031) | phosphatase activity |  | with: DiFMUP substrate | 27.4 nM
CC(C)Oc1cc(Cl)ccc1CNc1cc(-c2ccccc2)nc2ncnn12 | G-protein coupled receptor 3 (GPR3, Homo sapiens, UniProt P46089, I200W) | cAMP level, agonist, GloSensor |  | receptor I200W mutant | 2140 nM and 2750 nM and 4270 nM and 2040 nM
CC(C)(C(=O)N1CCC(Nc2nc3c(c(=O)[nH]2)CCCC3)CC1)c1ccc(Cl)cc1 | MRGPRD (Homo sapiens, UniProt Q8TDS7) | miniGq recruitment, BRET1 | HEK293T | wild type | 60 nM
O=C(CNC(=O)c1ccc(Cl)cc1)NO | Urease subunit alpha (ureC, Proteus mirabilis, UniProt P17086) |  |  |  | 69900 ± 400 nM
C[C@H](CCC(=O)O)[C@H]1CC[C@H]2[C@@H]3CC[C@@H]4C[C@H](OS(=O)(=O)O)CC[C@]4(C)[C@H]3CC[C@]12C | GPR39 | calcium flux, agonist, FLIPR |  | with: Zn2+ 4 µM | 1800 ± 800 nM
O=C(NC[C@@H](Cc1ccc(F)cc1)N1CCC(O)(C(F)(F)F)CC1)C1(c2ccc(Cl)cc2)CCCC1 | Transient receptor potential cation channel subfamily A member 1 (TRPA1, Homo sapiens, UniProt O75762, I878A) |  |  |  | 77 nM
[N-]=[N+]=Nc1c(C2CC2)cc(CC(=O)NC2(C(=O)O)CCCCC2)cc1C1CC1 | PYL8 (Arabidopsis thaliana, UniProt Q9FGM1) | phosphatase activity recovery, antagonist |  | with: HAB1, ABA 5000 nM | 12800 ± 1700 nM
CNc1ncnc2c1ncn2C1OC(CO)C(O)C1O (stereo not shown) | Adenosine receptor A3 (ADORA3, Homo sapiens, UniProt P0DMS8, I253Q/V169F) | G protein activation, agonist |  |  | 1100 nM
CC(CCC(=O)NCCS(=O)(=O)O)C1CCC2C3CCC4CC(OS(=O)(=O)O)CCC4(C)C3CCC12C (stereo not shown) | GPR39 | calcium signal, agonist, fluorescence |  |  | 69400 nM
COc1ccc(C(=O)c2c(C(=O)NCCCN(C)C)oc3ccc(Cl)cc3c2=O)cc1OC | Growth hormone secretagogue receptor type 1 (GHSR, Homo sapiens, UniProt Q92847, A204E) | beta-arrestin-2 recruitment, NanoBiT | HEK293T |  | 2690 nM
Nc1ncnc2c1ncn2[C@@H]1O[C@H](COP(=O)(O)OP(=O)(O)OC[C@H]2OC(O)[C@H](O)[C@@H]2O)[C@@H](O)[C@H]1OP(=O)(O)O (stereo partly shown) | TRPM2 (Nematostella vectensis, UniProt A7T1N0, H1174C) | agonist |  |  | 100 ± 6 nM
CSCC[C@H](NC(=O)[C@H](CC(C)C)NC(=O)CNC(=O)[C@H](Cc1ccccc1)NC(=O)[C@H](Cc1ccccc1)NC(=O)[C@@H](N)CCC(N)=O)C(N)=O | Substance-P receptor (TACR1, Homo sapiens, UniProt P25103) | calcium mobilization, Fura-2 | Flp-In-HEK293 |  | 0.398 nM
CSc1ccc2c(c1)C(N1CCN(C)CC1)Cc1ccccc1S2 (stereo not shown) | 5-hydroxytryptamine receptor 1E (HTR1E, Homo sapiens, UniProt P28566) | G protein activation, agonist, BRET |  |  | 44.3 nM
COc1ccc(NC(=O)C2CC(C)CCC2C(C)C)cc1 (stereo not shown) | Transient receptor potential cation channel subfamily M member 8 (TRPM8, Homo sapiens, UniProt Q7Z2W7) | ion current, agonist, automated patch clamp | HEK293T | holding potential 100 to -60 mV | 3630 nM
CC[C@H](C)[C@H](NC(=O)[C@@H]1CCCN1C(=O)CNC(=O)[C@H](Cc1ccccc1)NC(=O)[C@H](CC(N)=O)NC(=O)[C@H](CC(N)=O)NC(=O)[C@H](CO)NC(=O)[C@H](CO)NC(=O)[C@H](Cc1c[nH]cn1)NC(=O)[C@H](CCCNC(=N)N)NC(=O)[C@H](CC(C)C)NC(=O)[C@H](Cc1ccccc1)NC(=O)[C@H](CCC(=O)O)NC(=O)[C@H](C)NC(=O)[C@H](CC(C)C)NC(=O)[C@H](CCCNC(=N)N)NC(=O)[C@H](CCC(N)=O)NC(=O)[C@@H](NC(=O)[C@H](C)NC(=O)[C@@H]1CSSC[C@H](NC(=O)[C@H](CCCCN)NC(=O)CC[C@H](NC(=O)CCCCCCCCCCCCCCCCCCC(=O)O)C(=O)O)C(=O)N[C@@H](CC(N)=O)C(=O)N[C@@H]([C@@H](C)O)C(=O)N[C@@H](C)C(=O)N[C@@H]([C@@H](C)O)C(=O)N1)[C@@H](C)O)C(=O)N[C@@H](CC(C)C)C(=O)N1CCC[C@H]1C(=O)N1CCC[C@H]1C(=O)N[C@H](C(=O)N[C@@H](CC(N)=O)C(=O)N[C@H](C(=O)NCC(=O)N[C@@H](CO)C(=O)N[C@@H](CC(N)=O)C(=O)N[C@H](C(=O)N1CCC[C@H]1C(N)=O)[C@@H](C)O)C(C)C)[C@@H](C)O | Calcitonin-gene-related peptide receptor, CALCRL/RAMP1 (Homo sapiens, UniProt O60894+Q16602) | cAMP, agonist, TR-FRET |  |  | 70.3 nM
CNC(=O)C12CC1C(n1cnc3c(NC)nc(C#Cc4ccccc4Cl)nc31)C(O)C2O (stereo not shown) | SLC6A3 | ligand displacement, radioligand |  |  | 4100 nM
COc1cc(C2C(NC(=O)c3ccc(NC(=O)OC(C)(C)C)cc3)(C(=O)O)C(c3ccc(OC(=O)c4cccs4)c(OC)c3)C2(NC(=O)c2ccc(NC(=O)OC(C)(C)C)cc2)C(=O)O)ccc1OC(=O)c1cccs1 (stereo not shown) | Glucagon-like peptide 1 receptor (GLP1R, Homo sapiens, UniProt P43220, Y148A) | cAMP, agonist |  |  | 155 nM

For quick reference, copied from above:
SMILES | target | test | system | conditions | EC50
CC(C(=O)O)c1nn(C)c2nc(N)[nH]c(=O)c2c1=O (stereo not shown) | Dihydropteroate synthase (folP, Bacteria, UniProt P0AC13) | thermal stabilisation, lysate HiBiT CETSA |  | 63 °C, tested 0.01 to 200 µM | 2540 nM
CCOC(=O)C12CC1C(n1cnc3c(NC)nc(C#Cc4ccc(F)s4)nc31)C(O)C2O (stereo not shown) | SLC6A3 | ligand displacement, radioligand |  |  | 120 nM
